# Measured values gathered from unrelated publications.
# Each line is one published result; not all experiments were run side by side. “And” joins repeats or separate records; there may be more than shown.
Compound,organism,assay,system,setting,how to read,endpoint,value
CN1CCN(c2ncc(-c3ccc4c(Nc5ncccn5)cnnc4c3)cn2)CC1,Schistosoma mansoni,,adult worms,"10 µM, 5 h",direction not given,phenotypic severity score,0
CC1=C(Cc2cn(CC#N)nn2)C(=O)c2ccccc2C1=O,Schistosoma mansoni,,adult worms,"25 µM, 72 h",,killing,47%
C[C@H]1c2cccc(O)c2C(=O)C2=C(O)[C@]3(O)C(=O)C(C(N)=O)=C(O)[C@@H](N(C)C)[C@@H]3[C@@H](O)[C@@H]21,Brugia malayi,,SCID mouse,"dose not given, 6 weeks post-treatment, dosing x42d",,total adult worm count,62
CN1CCN(S(=O)(=O)c2ccc(-c3ccc4c(Nc5ncccn5)cnnc4c3)cc2)CC1,Schistosoma mansoni,,adult worms,"10 µM, 1 h",direction not given,phenotypic severity score,0
CC(C)n1ncc2c(C(=O)NCC3(C)CNC3)cc(C3CC3)nc21,Enterovirus D68,cytopathic effect,"RD, US/MO/14-18949",50 nM,,cell protection,0.273% and -0.41% and 0%
CC1=C(Cn2cc(COC3COC3)nn2)C(=O)c2ccccc2C1=O,Schistosoma mansoni,,adult worms,"10 µM, 72 h",,killing,48%
CN1CCN(c2ccc(-c3ccc4nncc(Nc5ncccn5)c4c3)cc2)CC1,Schistosoma mansoni,,adult worms,"10 µM, 48 h",direction not given,phenotypic severity score,0
CN(C)c1ccc(O)c2c1C[C@H]1C[C@H]3[C@H](N(C)C)C(O)=C(C(N)=O)C(=O)[C@@]3(O)C(O)=C1C2=O,Brugia malayi,,SCID mouse,"x28d dosing, 6 weeks post-treatment",,median adult worm burden,1 worms per mouse
CC1=C(Cc2cn(CCN3CCNCC3)nn2)C(=O)c2ccccc2C1=O,Schistosoma mansoni,,adult worms,"10 µM, 24 h",,killing,34.2%
